Published values from different studies.
A part holds a random share of what one study measured.

Study 1
Target: RNA binding protein fox-1 homolog 2, RRM domain, GST-SBP tag (RBFOX2, Homo sapiens, UniProt O43251-10, residues 100-194)
Method: RNA Bind-n-Seq
Molecule type: RNA
Medium: in vitro
Concentration: 365 nM
Setting: natural RNA segment, single round, ends assumed
Baseline: no-protein control
Reading: higher = stronger binding
Shared flanks, not repeated: GGGAGUUCUACAGUCCGACGAUC … UGGAAUUCUCGGGUGCCAA
Residues (chain): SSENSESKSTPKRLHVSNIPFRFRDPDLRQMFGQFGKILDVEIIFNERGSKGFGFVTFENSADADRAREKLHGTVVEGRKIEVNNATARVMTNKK
| Sequence | RBNS enrichment (R) |
| --- | --- |
| UCCUUUGGGCCUGAGGACCUGCAGAAGACCCAGUGCAGCCAGAGAAUGCCCACUGCCUGUAACAGCCACCUGGAGAACUUCAUAAAGAUGUCUCACAGCCCUGGGGACAC | 1.46 |
| GAAAGCAUCUUCACAAUGAAGCUUCCAGAUAGCACCGUUUUGCUAAAAGAUACAUUCUCAUUGUUUUCCAACAGUGAUGGCUUCCACAUAAGGUUAAACAAACUAGGUGC | 0.279 |
| CACUACAGGAUAUGAUCUCCAUGUAGUCCAUAUAAACCUGCAGAGUGAUUUUCCAGAGUGCUCGAUACUGUUAAUUACAUCUCCAUUAGGGCUGAAAAGAAUGACCUACG | 0.836 |
| UCAAGGUCUGUAAUUGUAUUUCAAAAACGAUGUCGUAUUCAAGUUGUGAAGGGAUUUGUUUUGUCAAAAAAUUAAAAACUCAAUGUGUAUGACGCCACUCUGAAGAGUAG | 0.467 |
| UUGCACAUGUUAAGAUAAAUUAUCUUCUAAAACCUUGUUCUUGGGAGCAGUGAAUGUCACUUUACAUGGCUGUUUCUGUCACAUGUUCAUAUCUGAACAUUUUUGGUUAU | 0.339 |
| UAUUCAGGAAUUGCAGAGAAAUGCAUUUUCACAGAAAUCAAGAUGUUAUUUUUGUAUACUAUAUCACUUAGACAACUGUGUUUCAUUUGCUGUAAUCAGUUUUUAAAAGU | 0.464 |
| UCCUGCUGAGCCAAAGUUUUCUCAUUACCCCUCCACUGGGGAAGCAGCUGAGGCCCAGGGCCUUGCUCCCUGGGAAAUUCUCUUCUCUCCAUCUUUCGGUGCAUUGGCCA | 0.391 |
| CCCUGGGUCGCCGCUUCCACCCGGACCACUUCACAUGCACCUUCUGCCUGCGCCCGCUCACCAAGGGGUCCUUCCAGGAGCGCGCCGGCAAGCCCUACUGCCAGCCCUGC | 0.612 |
| UUGUUGACUUAAAUUUAAUUCAAGGAUUGAAAAAUUAACUGGAUAUCUUGAAAUAUACAGUAAUGAUUGUCCUUAGACUCUUGAACUUUACCAUCUUUCCUAUUCAUAUA | 0.389 |
| CCUGGAACUUGCUUUAUAGUCCAGGCUGGCCUCACAUCCACAGAGACAUGCUAGGAUUAAGGGUGUGUGCCACUAUGCCUGGCUUAAGUCUUUUUCUCACUCAAACCUUC | 0.795 |
| UAUGUUUGUAGGUCUCAUGUGCUCAGGGCUAUGAAGUAGGCUGUGCAGGUGACAGCACCCUGCUAGGAAGCUGUGUGUGUCCUGCCUUUCCUCCUGGAAUAUGUACGGAU | 0.315 |
| UGGGAUGUGAAGAAAAAAAAUGAGAACCCAUUGAAAGGAAGAAAGGAAUUUGUUGUCUGCUUCUAAGCUAGAGUGGUUGUAAAGGUUCUGCUCUGCCAGUGUUCAGUAUC | 0.862 |

Study 2
Target: Fragile X messenger ribonucleoprotein 1, C-terminal low-complexity region (Fmr1, Mus musculus, UniProt P35922)
Method: RNA Bind-n-Seq
Molecule type: RNA
Medium: in vitro
Concentration: 200 nM
Setting: whole 134-nt RNA, ends assumed
Added: 150 mM LiCl
Baseline: input library
Reading: higher = stronger binding
Library: 7-deaza-guanosine replaces G
Shared flanks, not repeated: GGGAGUUCUACAGUCCGACGAUC … UGGAAUUCUCGGGUGUCAAGG
| Sequence | log2 enrichment |
| --- | --- |
| UCCUGUGCUACACAUCGUAUGUACCGAAUCGGGAAAAAAGGAAAAAAGGGAAAAAAGGGAAAGUAUUAUGUUACGCCGUUCGGAUCUGCA | 0.18 |
| ACCAUGCAGGUGGGCAUCUUUGGGAAGUGGGGCAAGGGGGGGAUAGGGAGGGGGGUAACACAAAGGGAACAGGUGGUCCCAGGUCGUUUC | 1.57 |
| UUCAGUUGGAUGGAUUUAUUGCUCGAAACUGGGCCAAUCAAAGAUCAGCUUUGGGAAGUGCUCUUGAUCCACUUGCUGAUAAAAUACUUA | -2.93 |
| GUCCUGUGCUACACAUCGUAUGUACCGAAUCGGGCCCCCGGGGCCCCCGGGCCCCCGGGAAAGUAUUAUGUUACGCCGUUCGGAUCUGCA | -3 |
| GCAGGAAGUAAAAACUAAUGGAAAUGCUUCGGAUAGUGGCAGGGGUGGGGGUUGCUAAGGAAAGGGUGGGAUGGGAGUGGGUAAAGAGUU | 1.54 |
| UAUUCCAAUGUCUGUGGGAAUAAUUGACACAAGGACGAAUCCAAGCCAGUUAAAUGCGGUUGAAUUUCUGUGGGACCCAGCAAAACGCAC | -0.228 |
| GUCCUGUGCUACACAUCGUAUGUACCGAAUCGGGUUUUUUUGGGUUUUUUUGGGAGGGAAAGUAUUAUGUUACGCCGUUCGGAUCUGCAC | 0.0301 |
| AGUCCUGUGCUACACAUCGUAUGUACCGAAUCGGGGAAAGGGGAAAGGGGAAAGGGGAAAGUAUUAUGUUACGCCGUUCGGAUCUGCACU | 0.253 |
| UGGGAGGUGGAUUUUGUUUAUUUUUUUAGCUCAUUUCCAGGGGUGGUAAUUUUUUUUUAAUAUGUGUCAUGAAUAAAGUUGUUUUUGAAA | 0.101 |
| UCAAGUCCUGUGCUACACAUCGUAUGUACCGAAUCGGGGCCGGCCGGGCCGGGGAAAGUAUUAUGUUACGCCGUUCGGAUCUGCACUUCC | 0.418 |
| GCAGGAAGUAAAAACAAAUGGAAAUGCUUCGGAAAAUGGCAGGGGUGGGGGUUGCUAAGGAAAGGGUGGGAUGGGAGUGGGUAAAGAGUU | 1.24 |

Study 3
Target: Histone acetyltransferase KAT6A, both winged helices, GST fusion (KAT6A, Homo sapiens, UniProt Q92794, residues 1-181)
Method: protein binding microarray
Molecule type: double-stranded DNA, one strand shown
Medium: in vitro
Concentration: not given
Setting: 8-mer, flanks averaged, mean of 2 arrays, mostly near background
Baseline: not given
Reading: higher = stronger binding
Construct (chain): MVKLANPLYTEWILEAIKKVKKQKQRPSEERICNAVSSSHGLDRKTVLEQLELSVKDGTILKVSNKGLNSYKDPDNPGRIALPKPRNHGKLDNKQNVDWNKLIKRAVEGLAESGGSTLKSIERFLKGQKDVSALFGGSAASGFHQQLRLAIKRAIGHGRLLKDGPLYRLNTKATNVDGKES
| Sequence | E-score |
| --- | --- |
| CATCTTAG | -0.0466 |
| AGCATGAA | -0.186 |
| ATCAAAAT | -0.151 |
| ATGCTGCG | 0.0524 |
| GGGTAAGA | -0.18 |
| AACGCGGA | 0.274 |
| AAATTGTA | -0.0536 |
| AGCGTCCA | 0.056 |
| CAACGCGA | 0.137 |
| CACCATGA | 0.0133 |
| ATAGAGGC | -0.0387 |
| CGTGAGAA | 0.0697 |
| GGGGTACC | -0.0342 |
| TTCCTAAA | -0.215 |
| ACCGTTAG | 0.085 |
| AACCACGT | -0.072 |
| AATTGTGG | -0.181 |
| ATGAAAGC | -0.0508 |
| ATACGAAA | -0.078 |
| CGCACCAC | 0.0374 |
| TCGCGGAA | 0.291 |
| ATGGCAGG | -0.124 |
| TGTTCAAA | 0.021 |
| ACTGATTA | -0.0258 |

Study 4
Target: RING finger protein unkempt homolog, zinc fingers 1-6, GST-SBP tag (UNK, Homo sapiens, UniProt Q9C0B0, residues 30-357)
Sequence of UniProt Q9C0B0 (30-357, looked up): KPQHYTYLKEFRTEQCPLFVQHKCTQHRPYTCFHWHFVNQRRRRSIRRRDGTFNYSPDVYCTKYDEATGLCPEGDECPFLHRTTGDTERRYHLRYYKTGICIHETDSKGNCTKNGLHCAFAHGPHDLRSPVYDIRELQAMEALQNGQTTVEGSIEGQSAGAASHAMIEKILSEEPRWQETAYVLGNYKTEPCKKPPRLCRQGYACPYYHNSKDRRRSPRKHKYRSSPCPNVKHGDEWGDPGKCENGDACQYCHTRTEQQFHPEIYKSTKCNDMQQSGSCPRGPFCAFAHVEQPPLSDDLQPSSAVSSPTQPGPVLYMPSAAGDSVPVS
Method: RNA Bind-n-Seq
Molecule type: RNA
Medium: in vitro
Concentration: not given
Setting: RNA with constant flanks, human and mouse sites, ends assumed
Baseline: input RNA pool
Reading: higher = stronger binding
Shared flanks, not repeated: GGGAGUUCUACAGUCCGACGAUC … CAACAGAGGAUUGAGCAUCA
| Sequence | bound/input enrichment [ratio] |
| --- | --- |
| UUGUUGAAGAACCAGCUGUCUGAUCCUGAUAUAAAGGAUGACCAGAUCAUUAACUGGCUACUAGAAUUUCGUUCCUCUGUCAUGUACUUGACAAAAGACUUUGAGCAACUUAUAAACAUC | 0.213 |
| GUGGCAGUAGAUUCUACAGGCACGUACAUGGCCACCUCUGGUCUGGACCACCAGCUGAAGAUCUUUGACUUGCGAGGGACAUUCCAGCCCCUGAGUUCCCGGACCUUGCCCCAGGGAGCA | 0.333 |
| UGGAACACAGUUCUGUAAAAUUUUCAUAAGAUUCCUUGGCAAUAACAUACGCUUGUGAUGGACCCUAGAAAUACUGCUAUGUUAGGAUUGGGUUCUGAUUCCGAAGGUUUUUCAAGAAAG | 0.374 |
| CCUCGGGCUGCCACUGUGGUUGCCCGGGGCCCUUUGAAGUGCGUUAAGUUGGACCGGCCUCGGUUUGAACGCGUCCUUGGCCCGUGCUCAGACAUCCUCAAGCGGAACAUCCAGCAGUAC | 0.0882 |
| UAUAGCCCUGGGUCUUCUGGCGUUCCCUAUGCAAAUGCCAAAGGAAUUGGAUAUCCAGCUGGUUUUCCUGUGGGCUAUGCAGCAGCACCUGCCUAUUCUCCUAACAUGUACCCUGGAGCG | 0.128 |
| ACUGCUGCCAAAUUCAUUGGUGCAGGUGCUGCAACAGUAGGAGUUGCUGGUUCUGGUGCUGGUAUUGGAACAGUCUUUGGCAGUCUUAUCAUUGGUUAUGCCAGAAACCCUUCACUGAAG | 0.117 |
| GGAGAGGUGUAUGCGGAAUGCCUCAGUGACAGCAGCAUAUUUGUACAGAGUAGGAACUGCAACUUUCAUCAUGGCUUUCAUCCCACCACUGUCUGUAAGAUUCCCAGCAGCUGCAGCCUC | 0.201 |
| AAGGACCCAGAAAAAGUGGCUCGGGUGAAAGCACUGUAUGAGGCGCUGGAUCUGCAGUCUGCUUUCUUCAAGUAUGAGGAAGACAGUUACAACCGCCUCAAGAGUCUCAUAGAGCAGUGC | 0.228 |
| UUAAAAGAAGCAGCCCAGUCAAUUGAACAAAGAUUGAUGAAAAUGGAUCACACUGCAAUCCACCCACAUCUACUUGAUAUGAAAAUUGGUCAAGGCAAAUAUGAGCAAGGGUUCUUUCCA | 0.179 |
| AUUUUGGCUCUCAUUUCACUCUUCAGUGUUCCUGUUAUUUAUGAACGGCAUCAGGCACAGAUAGAUCAUUAUCUAGGACUUGCAAAUAAGAAUGUUAAAGAUGCUAUGGCUAAAAUCCAA | 0.486 |
| UGCCUCUCAUUCAAUCCCUACAGCGAAUUUAUUCUAGCCACCGGCUCUGCGGAUAAGACCGUAGCUUUAUGGGAUCUGCGUAACUUAAAAUUAAAACUCCAUACCUUCGAAUCUCAUAAA | 0.385 |
